{"data": "Results pooled from the literature", "note": "Parts stem from different laboratories: compare values within a part only."}
{"data": "Study 1", "target": "RNA binding protein fox-1 homolog 2, RRM domain, GST-SBP tag (RBFOX2, Homo sapiens, UniProt O43251-10, residues 100-194)", "method": "RNA Bind-n-Seq", "form": "RNA", "sample": "in vitro", "tested at": "365 nM", "setting": "natural RNA segment, single round, ends assumed", "baseline": "no-protein control", "reading": "higher = stronger binding", "constant ends, left off below": "GGGAGUUCUACAGUCCGACGAUC … UGGAAUUCUCGGGUGCCAA", "Construct (chain)": "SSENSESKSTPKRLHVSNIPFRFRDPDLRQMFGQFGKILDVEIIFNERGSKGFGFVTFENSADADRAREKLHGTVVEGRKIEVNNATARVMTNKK"}
{"Sequence": "AUUCUAAGUAAGAUAGUAAAUCUAAGGUCACUGAGCCAAAUCCUUUUCAAUAGGCAUAUAUUAACAGGCUGCUUAUUUUGGCGGAGGUUACAUAUGGAUGAAAAUGAAUC", "RBNS enrichment (R)": 0.298}
{"Sequence": "GGACCUCUCCUGAGAGGCAAAACCUGUUGCCUCCACCACGGCUUCCCUCUUGGCUCAUUCCAAGCUUGGCCAAAUUGGGGAAGUGGGAUGGAGGUUGCCCUGCAUCCCCC", "RBNS enrichment (R)": 0.476}
{"Sequence": "UUCCUUUGGGUUUCCAGAGUCUCUGGGAGAAGAAGGGUGGGCGGGUGGACCCAGAGCGACCCAGAUUGGGUGGCUGGGGCGGGGCAGUAGGGUUCAUUCUCCUAGUGCCC", "RBNS enrichment (R)": 0.169}
{"Sequence": "CUGAGUGCCAGUUGUAAAUGUUUUUCAACCAGCACCUAAAAAGACUCUUUUCAAAAAAUCACAGAAACAACCUAGGACAAUUAUUUGUUACAUAAUCCGACCUCAUAGCA", "RBNS enrichment (R)": 3.82}
{"Sequence": "GCUUAAUAACGCCGCACUGGGCCAGCGCGCUGUGCUAGAGAUUUCUCAUCAAAACUAAAGACAGCAAAAGGCUUGUCAGUGAUCUAAGGGUUUGUGAGCUCUCUGCUCUG", "RBNS enrichment (R)": 0.313}
{"Sequence": "UUUCCCUAGAUGAGACCUGAGGAACCCAGUUGCCCCUUCCCCCCACCCCCUUUACAGCUCCCAACUUGGGUCCUGUAAAUGGAGGUGUCAUUGCCAUCACCAUCGCCAGC", "RBNS enrichment (R)": 0.369}
{"Sequence": "GCAACAAAAAGUCCUUGUCGAAACCACAUUUCAAGUCCUUUUACGUAUAACCAUCCUUCGGCCAGCCCCGGUAGGCAGGGGAUGAGUCAUUCCAGGUCGGCAUCCUCCGG", "RBNS enrichment (R)": 0.288}
{"Sequence": "AAUAGUCUCCCCAUCCCAUGAGGGGGCUUUGAUGGCCCUGGAGACCCUACAGUAAAUAAACCAGCAUCGUGCCGCCCAAAGCCGCCUCUGCUUAGUUGCCAAACAAGGGG", "RBNS enrichment (R)": 0.441}
{"data": "Study 2", "target": "Fragile X messenger ribonucleoprotein 1, C-terminal low-complexity region (Fmr1, Mus musculus, UniProt P35922)", "method": "RNA Bind-n-Seq", "form": "RNA", "sample": "in vitro", "tested at": "200 nM", "setting": "whole 134-nt RNA, ends assumed", "with": "150 mM LiCl", "baseline": "input library", "reading": "higher = stronger binding", "each molecule": "7-deaza-guanosine replaces G", "constant ends, left off below": "GGGAGUUCUACAGUCCGACGAUC … UGGAAUUCUCGGGUGUCAAGG"}
{"Sequence": "GUCCUGUGCUACACAUCGUAUGUACCGAAUCGGGUUUGGGUUUUUUUGGGUUUUUGGGAAAGUAUUAUGUUACGCCGUUCGGAUCUGCAC", "log2 enrichment": -0.318}
{"Sequence": "GUCCUGUGCUACACAUCGUAUGUACCGAAUCGGGAAAAAAAGGGUUUUUGGGUUUGGGAAAGUAUUAUGUUACGCCGUUCGGAUCUGCAC", "log2 enrichment": -2.47}
{"Sequence": "UCAAGUCCUGUGCUACACAUCGUAUGUACCGAAUCGGAAAGGUUUGGAAAAAGGAAAGUAUUAUGUUACGCCGUUCGGAUCUGCACUUCC", "log2 enrichment": -1.04}
{"Sequence": "UCAAGUCCUGUGCUACACAUCGUAUGUACCGAAUCGGCCCGGCCCGGGCCCGGGGAAAGUAUUAUGUUACGCCGUUCGGAUCUGCACUUC", "log2 enrichment": -1.51}
{"Sequence": "ACCAUGCAGGUGGGCAUCUUUGGGAAGUGGGGCAAGGGGGGGAUAGGGAGGGGGGUAACGCUUUGGGAACAGGUGGUCCCAGGUCGUUUC", "log2 enrichment": 1.02}
{"Sequence": "GCAGGAAGUAAAAACAAAUGGAAAUGCUUCGGAUAGUGGCAGGGGUGGGGGUUGCUAAGCAAAGGGUGGGAUGGGAGUGGGUAAAGAGUU", "log2 enrichment": 1.58}
{"Sequence": "GUCCUGUGCUACACAUCGUAUGUACCGAAUCAAACCCCCAAACCCCCAAAUUUUUAAAAAAGUAUUAUGUUACGCCGUUCGGAUCUGCAC", "log2 enrichment": 1.55}
{"Sequence": "UCAAGUCCUGUGCUACACAUCGUAUGUACCGAAUCGGGCCCGGCCCGGGCCCGGAAAGUAUUAUGUUACGCCGUUCGGAUCUGCACUUCC", "log2 enrichment": -1.39}
{"data": "Study 3", "target": "Histone acetyltransferase KAT6A, winged helix 2, GST fusion (KAT6A, Homo sapiens, UniProt Q92794, residues 85-181)", "method": "protein binding microarray", "form": "double-stranded DNA, one strand shown", "sample": "in vitro", "tested at": "not given", "setting": "8-mer, flanks averaged, mean of 2 arrays, mostly near background", "baseline": "not given", "reading": "higher = stronger binding", "Residues (chain)": "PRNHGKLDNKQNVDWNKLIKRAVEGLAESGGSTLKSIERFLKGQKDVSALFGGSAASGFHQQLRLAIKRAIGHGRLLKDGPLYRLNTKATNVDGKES"}
{"Sequence": "CTTAAAAA", "E-score": 0.139}
{"Sequence": "GAAACTAC", "E-score": 0.111}
{"Sequence": "CCGCCGGC", "E-score": 0.327}
{"Sequence": "GAGCGTCA", "E-score": -0.0214}
{"Sequence": "AAAGCGAG", "E-score": 0.151}
{"Sequence": "GCAGCCGA", "E-score": 0.0892}
{"Sequence": "CTGGAGAA", "E-score": -0.0764}
{"Sequence": "GGATCAGA", "E-score": -0.0649}
{"Sequence": "CATAGTTC", "E-score": -0.00615}
{"Sequence": "ACATATAG", "E-score": -0.114}
{"Sequence": "CCAAAGAA", "E-score": 0.133}
{"Sequence": "GCAGCGTA", "E-score": -0.0855}
{"Sequence": "ATAAAGAA", "E-score": 0.123}
{"Sequence": "ATCACGTC", "E-score": -0.154}
{"Sequence": "ATTATGGG", "E-score": -0.147}
{"Sequence": "AGATAGCC", "E-score": -0.0849}
{"Sequence": "GTACCACA", "E-score": 0.0241}
{"data": "Study 4", "target": "Interferon regulatory factor 3, full length, phosphomimetic (IRF3, Homo sapiens, UniProt Q14653, residues 1-427, S386D/S396D/S398D/S402D/T404D/S405D)", "method": "protein-binding microarray", "form": "double-stranded DNA, one strand shown", "sample": "in vitro", "tested at": "2540 nM top", "setting": "60-bp whole probe", "with": "salmon DNA 0.4 mg/ml", "baseline": "random background probes", "reading": "higher = stronger binding", "constant ends, left off below": "GCCTAGCAC … GTCTTGATTCGCTTGACGCTGCTG", "Residues (chain)": "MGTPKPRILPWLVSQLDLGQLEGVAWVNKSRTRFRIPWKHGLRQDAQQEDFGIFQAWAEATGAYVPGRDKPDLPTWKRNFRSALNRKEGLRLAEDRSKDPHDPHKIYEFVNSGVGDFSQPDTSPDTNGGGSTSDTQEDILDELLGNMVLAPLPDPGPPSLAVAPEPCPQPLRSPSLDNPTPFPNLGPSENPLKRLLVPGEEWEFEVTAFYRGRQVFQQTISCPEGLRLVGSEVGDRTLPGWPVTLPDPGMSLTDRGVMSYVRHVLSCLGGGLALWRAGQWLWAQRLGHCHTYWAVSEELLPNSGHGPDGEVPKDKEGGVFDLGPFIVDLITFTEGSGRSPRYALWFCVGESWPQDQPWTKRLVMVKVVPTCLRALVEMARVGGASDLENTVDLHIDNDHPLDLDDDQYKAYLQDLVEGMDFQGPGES"}
{"Sequence": "TCAAAGATTTTTATCAAACTGTGCTAG", "fitted relative affinity [z-score]": -0.24}
{"Sequence": "CCTCCTCTAACTTTCCAATTGTGCTAG", "fitted relative affinity [z-score]": 2.72}
{"Sequence": "GACGTTATCGGGACTGGAGACGTGCTA", "fitted relative affinity [z-score]": 0.373}
{"Sequence": "TTAGGTATTGGGACTGGGTTAGTGCTA", "fitted relative affinity [z-score]": -0.743}
{"Sequence": "GACGGTATCGACTATGGGGACGTGCTA", "fitted relative affinity [z-score]": 0.44}
{"Sequence": "GACGATTTCAGACGGGAGACGTGCTAG", "fitted relative affinity [z-score]": 0.517}
{"Sequence": "AGTGTCTCCATCAGAGGAGAGTGCTAG", "fitted relative affinity [z-score]": 0.0488}
{"Sequence": "GACGGTCTCGGTTTCCGGACGTGCTAG", "fitted relative affinity [z-score]": 3.99}
{"Sequence": "TCATCTCTCTTTCCACTACTGTGCTAG", "fitted relative affinity [z-score]": 2.1}
{"Sequence": "TTATGTATCGGGTTTCGGTTAGTGCTA", "fitted relative affinity [z-score]": 4.13}
{"Sequence": "TGCTTCCTCTTTCTCTGCTAGTGCTAG", "fitted relative affinity [z-score]": 2.39}
{"Sequence": "TTAGATATCGACTATCGGTTAGTGCTA", "fitted relative affinity [z-score]": -0.066}
{"Sequence": "TTAGGTTTCGACTATCGGATAGTGCTA", "fitted relative affinity [z-score]": 2.53}
{"Sequence": "TTAAGTATCGGTATCGGTTAGTGCTAG", "fitted relative affinity [z-score]": 5.65}
{"Sequence": "ATCGATTTCTTCCCTGTGAAAGTGCTA", "fitted relative affinity [z-score]": 0.732}
{"Sequence": "ATCACTTTCCACTTGTCTTTGTGCTAG", "fitted relative affinity [z-score]": 4.09}
{"Sequence": "TTAGTACTGGGTTTCGGTTAGTGCTAG", "fitted relative affinity [z-score]": 3.21}
{"Sequence": "TTAGGTCTCTTTCTCCTTTAGTGCTAG", "fitted relative affinity [z-score]": 2.34}
{"Sequence": "GAGGCTTTTTTTTTTTTTTTGTGCTAG", "fitted relative affinity [z-score]": -0.249}
{"note": "Repeated from above (study 3):"}
{"Sequence": "CATAGTTC", "E-score": -0.00615}
{"Sequence": "ACATATAG", "E-score": -0.114}
{"Sequence": "CCAAAGAA", "E-score": 0.133}
{"Sequence": "GCAGCGTA", "E-score": -0.0855}
{"Sequence": "ATAAAGAA", "E-score": 0.123}
{"Sequence": "ATCACGTC", "E-score": -0.154}
